# Experimental data from different studies.
# Each numbered part is a random draw from the data of one study; scales do not carry over between parts.
# Chain of UniProt Q15349 (whole entry, looked up): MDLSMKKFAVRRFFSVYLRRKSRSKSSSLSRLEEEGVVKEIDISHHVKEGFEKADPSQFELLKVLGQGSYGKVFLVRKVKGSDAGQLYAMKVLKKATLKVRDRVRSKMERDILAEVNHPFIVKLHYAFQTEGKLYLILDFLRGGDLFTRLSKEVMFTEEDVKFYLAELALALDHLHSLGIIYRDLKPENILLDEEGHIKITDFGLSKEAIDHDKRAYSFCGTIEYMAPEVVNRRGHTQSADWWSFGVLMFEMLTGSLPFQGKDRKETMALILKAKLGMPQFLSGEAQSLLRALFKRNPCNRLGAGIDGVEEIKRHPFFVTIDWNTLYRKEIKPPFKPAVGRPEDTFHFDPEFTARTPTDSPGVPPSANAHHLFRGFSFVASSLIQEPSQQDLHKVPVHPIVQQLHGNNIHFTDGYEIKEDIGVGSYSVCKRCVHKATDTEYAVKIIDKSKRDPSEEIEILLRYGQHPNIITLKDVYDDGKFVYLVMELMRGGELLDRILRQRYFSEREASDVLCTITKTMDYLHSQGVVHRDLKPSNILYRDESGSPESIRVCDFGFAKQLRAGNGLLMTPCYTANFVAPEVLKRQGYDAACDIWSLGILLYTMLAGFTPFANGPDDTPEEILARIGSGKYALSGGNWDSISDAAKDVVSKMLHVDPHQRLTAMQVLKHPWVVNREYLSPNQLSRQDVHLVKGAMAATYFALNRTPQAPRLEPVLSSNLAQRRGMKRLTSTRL
# Chain of UniProt Q02763 (whole entry, looked up): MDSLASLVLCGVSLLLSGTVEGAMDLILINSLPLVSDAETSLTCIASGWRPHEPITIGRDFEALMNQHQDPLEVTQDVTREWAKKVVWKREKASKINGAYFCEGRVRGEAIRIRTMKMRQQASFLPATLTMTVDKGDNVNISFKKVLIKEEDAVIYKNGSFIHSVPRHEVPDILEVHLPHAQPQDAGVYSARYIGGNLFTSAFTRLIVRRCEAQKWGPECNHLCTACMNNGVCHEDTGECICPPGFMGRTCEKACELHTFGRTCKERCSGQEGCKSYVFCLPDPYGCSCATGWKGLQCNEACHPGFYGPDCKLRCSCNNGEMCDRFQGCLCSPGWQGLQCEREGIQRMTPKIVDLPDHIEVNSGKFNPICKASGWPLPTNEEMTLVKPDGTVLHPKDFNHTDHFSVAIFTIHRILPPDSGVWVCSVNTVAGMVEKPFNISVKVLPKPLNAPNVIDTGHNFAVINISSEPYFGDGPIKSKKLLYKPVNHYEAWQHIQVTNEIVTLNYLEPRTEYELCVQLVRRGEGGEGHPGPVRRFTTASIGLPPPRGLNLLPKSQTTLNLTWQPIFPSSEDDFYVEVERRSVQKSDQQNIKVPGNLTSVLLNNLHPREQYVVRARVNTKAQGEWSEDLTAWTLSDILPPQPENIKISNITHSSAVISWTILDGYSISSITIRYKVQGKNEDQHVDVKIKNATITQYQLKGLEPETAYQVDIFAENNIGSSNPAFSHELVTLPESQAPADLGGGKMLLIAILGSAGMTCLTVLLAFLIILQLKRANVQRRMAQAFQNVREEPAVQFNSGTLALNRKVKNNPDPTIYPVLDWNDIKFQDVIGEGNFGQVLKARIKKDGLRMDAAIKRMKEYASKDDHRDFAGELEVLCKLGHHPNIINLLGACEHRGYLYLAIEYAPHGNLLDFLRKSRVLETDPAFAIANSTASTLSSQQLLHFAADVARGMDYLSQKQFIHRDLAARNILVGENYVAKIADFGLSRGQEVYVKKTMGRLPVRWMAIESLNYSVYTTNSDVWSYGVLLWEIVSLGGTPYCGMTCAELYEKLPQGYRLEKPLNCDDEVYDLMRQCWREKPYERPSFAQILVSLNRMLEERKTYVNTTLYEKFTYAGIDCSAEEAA
# Chain of UniProt Q96PY6 (whole entry, looked up): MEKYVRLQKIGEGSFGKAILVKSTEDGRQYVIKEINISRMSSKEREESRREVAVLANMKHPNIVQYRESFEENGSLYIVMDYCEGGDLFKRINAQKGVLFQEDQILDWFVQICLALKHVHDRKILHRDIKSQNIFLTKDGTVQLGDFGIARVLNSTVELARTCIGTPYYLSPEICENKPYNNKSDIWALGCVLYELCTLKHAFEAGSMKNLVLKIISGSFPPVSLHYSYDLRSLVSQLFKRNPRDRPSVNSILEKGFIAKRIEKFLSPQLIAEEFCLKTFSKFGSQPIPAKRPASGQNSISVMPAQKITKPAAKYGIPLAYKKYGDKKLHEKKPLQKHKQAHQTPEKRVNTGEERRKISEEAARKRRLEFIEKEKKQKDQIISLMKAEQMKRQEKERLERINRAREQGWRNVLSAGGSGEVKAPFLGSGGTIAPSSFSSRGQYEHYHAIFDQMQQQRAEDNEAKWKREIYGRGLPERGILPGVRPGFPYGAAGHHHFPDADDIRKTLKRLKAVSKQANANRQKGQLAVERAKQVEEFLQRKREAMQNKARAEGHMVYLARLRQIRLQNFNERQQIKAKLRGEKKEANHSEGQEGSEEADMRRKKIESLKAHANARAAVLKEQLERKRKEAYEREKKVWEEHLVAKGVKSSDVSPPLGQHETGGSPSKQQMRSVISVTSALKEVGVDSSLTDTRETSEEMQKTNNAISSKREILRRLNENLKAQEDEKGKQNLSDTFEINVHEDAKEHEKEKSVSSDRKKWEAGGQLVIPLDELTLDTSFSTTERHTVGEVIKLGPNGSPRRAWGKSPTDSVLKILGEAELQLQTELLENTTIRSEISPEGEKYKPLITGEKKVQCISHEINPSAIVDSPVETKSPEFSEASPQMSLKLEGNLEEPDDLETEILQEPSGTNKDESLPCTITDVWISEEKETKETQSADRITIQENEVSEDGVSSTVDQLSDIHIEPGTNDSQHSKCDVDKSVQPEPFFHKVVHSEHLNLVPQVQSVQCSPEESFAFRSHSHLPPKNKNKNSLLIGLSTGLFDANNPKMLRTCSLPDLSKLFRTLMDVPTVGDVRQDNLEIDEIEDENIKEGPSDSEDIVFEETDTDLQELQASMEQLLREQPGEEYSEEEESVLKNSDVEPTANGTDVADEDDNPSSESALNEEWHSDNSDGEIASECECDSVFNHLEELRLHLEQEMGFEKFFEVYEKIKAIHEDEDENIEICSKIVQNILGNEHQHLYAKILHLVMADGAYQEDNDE
# Chain of UniProt P49137 (whole entry, looked up): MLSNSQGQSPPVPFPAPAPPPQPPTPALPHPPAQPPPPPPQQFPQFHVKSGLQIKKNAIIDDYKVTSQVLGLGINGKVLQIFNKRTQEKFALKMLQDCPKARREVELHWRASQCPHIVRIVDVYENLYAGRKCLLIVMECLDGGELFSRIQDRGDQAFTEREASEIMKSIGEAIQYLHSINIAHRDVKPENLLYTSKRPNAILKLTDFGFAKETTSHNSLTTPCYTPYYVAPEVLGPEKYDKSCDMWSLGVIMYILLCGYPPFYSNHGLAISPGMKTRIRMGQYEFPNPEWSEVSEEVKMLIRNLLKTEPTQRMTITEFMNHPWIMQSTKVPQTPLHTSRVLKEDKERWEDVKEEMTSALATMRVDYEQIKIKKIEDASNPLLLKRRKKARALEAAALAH
# Chain of UniProt P10398 (whole entry, looked up): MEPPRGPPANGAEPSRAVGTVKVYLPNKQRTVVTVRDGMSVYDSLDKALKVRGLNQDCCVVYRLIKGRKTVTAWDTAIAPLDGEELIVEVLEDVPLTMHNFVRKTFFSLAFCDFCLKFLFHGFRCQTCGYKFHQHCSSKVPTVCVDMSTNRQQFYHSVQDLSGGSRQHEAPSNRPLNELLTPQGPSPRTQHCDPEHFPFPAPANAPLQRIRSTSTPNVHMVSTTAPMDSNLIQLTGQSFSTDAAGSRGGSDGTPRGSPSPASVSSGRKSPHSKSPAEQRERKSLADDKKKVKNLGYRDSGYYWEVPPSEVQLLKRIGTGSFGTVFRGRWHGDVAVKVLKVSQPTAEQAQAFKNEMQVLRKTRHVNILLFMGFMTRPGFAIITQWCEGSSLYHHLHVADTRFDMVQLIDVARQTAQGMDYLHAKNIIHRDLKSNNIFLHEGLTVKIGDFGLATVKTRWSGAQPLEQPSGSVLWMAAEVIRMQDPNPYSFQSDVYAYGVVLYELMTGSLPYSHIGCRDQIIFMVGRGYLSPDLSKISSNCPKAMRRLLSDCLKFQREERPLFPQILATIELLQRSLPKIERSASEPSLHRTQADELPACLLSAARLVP
# Chain of UniProt P30291 (whole entry, looked up): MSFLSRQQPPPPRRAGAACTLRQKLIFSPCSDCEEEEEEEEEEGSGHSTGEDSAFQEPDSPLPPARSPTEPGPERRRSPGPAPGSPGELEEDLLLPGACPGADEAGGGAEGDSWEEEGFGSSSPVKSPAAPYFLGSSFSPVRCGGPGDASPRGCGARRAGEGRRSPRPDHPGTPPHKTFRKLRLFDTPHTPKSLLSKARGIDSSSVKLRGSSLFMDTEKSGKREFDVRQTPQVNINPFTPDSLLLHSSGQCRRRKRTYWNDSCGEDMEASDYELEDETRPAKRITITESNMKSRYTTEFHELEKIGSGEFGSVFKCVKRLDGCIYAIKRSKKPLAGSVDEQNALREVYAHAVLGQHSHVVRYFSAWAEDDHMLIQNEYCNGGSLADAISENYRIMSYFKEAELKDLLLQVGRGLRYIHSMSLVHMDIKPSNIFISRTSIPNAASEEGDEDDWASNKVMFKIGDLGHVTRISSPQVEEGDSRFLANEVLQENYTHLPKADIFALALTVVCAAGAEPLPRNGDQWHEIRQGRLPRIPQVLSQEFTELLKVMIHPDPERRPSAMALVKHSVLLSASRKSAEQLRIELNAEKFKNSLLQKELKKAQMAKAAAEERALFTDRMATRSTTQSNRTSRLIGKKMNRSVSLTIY

# Sample 1
# Structure (SMILES): CS(=O)(=O)NCC[C@H](NC(=O)c1cncc2c1cnn2-c1ccc(F)cc1)c1ccnc(S(C)(=O)=O)c1
# Observed: cell-free assay
# Technique: competition with immobilised ligand
# Concentration: 1 µM
target,remaining binding
"Tyrosine-protein kinase ABL1, non-phosphorylated (ABL1, Homo sapiens, UniProt P00519, F317L)",100%
"Serine/threonine-protein kinase TAO3 (TAOK3, Homo sapiens, UniProt Q9H2K8)",80%
"Casein kinase II subunit alpha' (CSNK2A2, Homo sapiens, UniProt P19784)",100%
"Bone morphogenetic protein receptor type-1B (BMPR1B, Homo sapiens, UniProt O00238)",100%
"Hepatocyte growth factor receptor (MET, Homo sapiens, UniProt P08581, Y1235D)",93%
"Ribosomal protein S6 kinase alpha-2, N-terminal kinase domain (RPS6KA2, Homo sapiens, UniProt Q15349)",100%

# Sample 2
# Compound: c1cc(-c2cnn3cc(-c4ccc(OCCN5CCCCC5)cc4)cnc23)ccn1
# Observed: enzyme activity
# Action: inhibitor
# Concentration: 0.5 µM
# Relative to: control
target,remaining activity [%]
"Angiopoietin-1 receptor (TEK, Homo sapiens, UniProt Q02763)",99.3
"Ribosomal protein S6 kinase alpha-2 (RPS6KA2, Homo sapiens, UniProt Q15349)",81
"Serine/threonine-protein kinase TAO2 (TAOK2, Homo sapiens, UniProt Q9UL54)",90.3
"Ephrin type-A receptor 3 (EPHA3, Homo sapiens, UniProt P29320)",55.7
"Wee1-like protein kinase (WEE1, Homo sapiens, UniProt P30291)",75.4
"Fibroblast growth factor receptor 3 (FGFR3, Homo sapiens, UniProt P22607)",70.9
"Activin receptor type-1B (ACVR1B, Homo sapiens, UniProt P36896)",112
"MAP kinase-activated protein kinase 2 (MAPKAPK2, Homo sapiens, UniProt P49137)",86.6
"Serine/threonine-protein kinase A-Raf (ARAF, Homo sapiens, UniProt P10398)",55.6
"Serine/threonine-protein kinase Nek1 (NEK1, Homo sapiens, UniProt Q96PY6)",88.9
"Mitogen-activated protein kinase 3 (MAPK3, Homo sapiens, UniProt P27361)",110
"Mitogen-activated protein kinase kinase kinase 14 (MAP3K14, Homo sapiens, UniProt Q99558)",111
"Dual specificity mitogen-activated protein kinase kinase 2 (MAP2K2, Homo sapiens, UniProt P36507)",81.9

# Sample 3
# Cell line: HaCaT
# Concentration: 100 µM
# Time: 36 h
Compound,viability
Cc1onc(-c2c(Cl)cccc2Cl)c1C(=O)N[C@@H]1C(=O)N2[C@@H]1SC(C)(C)[C@@H]2C(=O)O,98.9%
CN(C)c1ccc(C(=C2C=CC(=[N+](C)C)C=C2)c2ccc(N(C)C)cc2)cc1,10.2%
Cc1nccn1CC1CCc2c(c3ccccc3n2C)C1=O (centres unmarked),61.4%
C[C@@H]1[C@H](O)[C@@H](C)/C=C/C=C/C=C/C=C/C=C/C=C/C=C/[C@H](O[C@@H]2O[C@H](C)[C@@H](O)[C@H](N)[C@@H]2O)C[C@@H]2O[C@](O)(C[C@@H](O)C[C@@H](O)[C@H](O)CC[C@@H](O)C[C@@H](O)CC(=O)O[C@H]1C)C[C@H](O)[C@H]2C(=O)O,89%
CC(=O)OCC(=O)[C@@]12OC(C)(C)O[C@@H]1C[C@H]1[C@@H]3C[C@H](F)C4=CC(=O)C=C[C@]4(C)[C@@]3(F)[C@@H](O)C[C@@]12C,97.2%
CN/C(=N/CCSCc1nc[nH]c1C)NC#N,97.8%

# Sample 4
# Technique: exponential regression of PRP log k'
# pH: 7.0
SMILES,"logD (1,9-decadiene/water)"
CCCC(=O)OCCCCCC(=O)N[C@H](C(=O)N1C[C@H](O)C[C@H]1C(=O)NCc1ccc(-c2scnc2C)cc1)C(C)(C)C,-1.35
Cc1ncsc1-c1ccc(CNC(=O)[C@@H]2C[C@@H](O)CN2C(=O)[C@@H](NC(=O)CCCCCNC(=O)CC23C[C@H]4C[C@@H](C2)C[C@@H](C3)C4)C(C)(C)C)cc1,-0.318
COCC(=O)OCCCCCC(=O)N[C@H](C(=O)N1C[C@H](O)C[C@H]1C(=O)NCc1ccc(-c2scnc2C)cc1)C(C)(C)C,-3.29
CCCC(=O)NCCCCCC(=O)N[C@H](C(=O)N1C[C@H](O)C[C@H]1C(=O)NCc1ccc(-c2scnc2C)cc1)C(C)(C)C,-4.29

# Repeated from above (sample 2):
target,remaining activity [%]
"Mitogen-activated protein kinase kinase kinase 14 (MAP3K14, Homo sapiens, UniProt Q99558)",111
"Dual specificity mitogen-activated protein kinase kinase 2 (MAP2K2, Homo sapiens, UniProt P36507)",81.9
